Experimental data of several laboratories.
Parts stem from different laboratories: compare values within a part only. “And” joins repeats or separate records; there may be more than shown. Substitutions count along the parent as printed.

Study 1 — target: CCNB1, cyclin fold, Cln2 fusion (human); method: yeast growth competition, sequencing; sample: yeast; notes: strong parent motif; relative to: not given; reading: higher = stronger binding
Parent: viral docking peptide; KGVKRKLFAEDSS; partner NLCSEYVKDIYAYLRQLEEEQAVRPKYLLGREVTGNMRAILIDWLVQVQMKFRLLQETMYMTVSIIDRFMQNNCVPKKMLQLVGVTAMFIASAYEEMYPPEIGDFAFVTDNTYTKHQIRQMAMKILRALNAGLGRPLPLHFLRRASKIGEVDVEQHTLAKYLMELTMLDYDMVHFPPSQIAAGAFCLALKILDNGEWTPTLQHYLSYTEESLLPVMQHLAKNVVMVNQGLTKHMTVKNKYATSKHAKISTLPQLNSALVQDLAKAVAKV
Variant | normalised enrichment score
G2D | 3.14
K1A | 2.81
R5A L7A | 0.132
D11N | 1.35
R5E | 0.223
K4P | 0.809
E10N | 1.19
S12Y | 2.59

Study 2 — effect on: peptide-MHC binding; form: peptide; concentration: concentration not given
Target: HLA class I histocompatibility antigen, A alpha chain, allele A*25:01 (Homo sapiens, UniProt P04439)
Molecule | binding
MACHRVLTY | inactive
KVSWRWMVY | inactive
GIVSSMHYK | inactive
TTFPVNGGY | inactive
CERYGFPAS | inactive
TEWPQLKVA | inactive
KVSVGSYFC | inactive
FPDGKPFTL | inactive

Study 3 — target: UBE2A UBC core domain (UniProt P49459); method: yeast two-hybrid; sample: yeast; notes: mostly zero background; relative to: not given; reading: higher = stronger interaction
B1: RFPL3 RING domain (UniProt O75679); chain MAALFQEASSCPVCSDYLEKPMSLECGCTVCLKCINSLQKEPHGEDLLCCCCSMVSQRNKIRP
B2: TRIM2 RING domain (UniProt Q9C040); chain VRQIDKQFLICSICLERYKNPKVLPCLHTFCERCLQNYIPAHSLTLSCPVCRQTSILPEKGV
B3: RNF17 RING domain (UniProt Q9BXT8); chain SQPWGAAEIQCTRCGRRVSRSSGHHCELQCGHAFCELCLLMTEECTTIICPDCEVATAVNTRQR
B4: UBE4B RING domain (UniProt O95155); chain KNARAEIDYSDAPDEFRDPLMDTLMTDPVRLPSGTIMDRSIILRHLLNSPTDPFNRQTLTESMLEPVPELKEQIQAWMREKQNSDH
B5: RMND5B RING domain (UniProt Q96G75); chain MKCWYHSVFACPILRQQTSDSNPPIKLICGHVISRDALNKLINGGKLKCPYCPMEQNPADGK
B6: PJA2 RING domain (UniProt O43164); chain DHTAIGQEQCCPICCSEYIKDDIATELPCHHFFHKPCVSIWLQKSGTCPVCRRHFPPAVIEA
B7: TRIM28 RING domain (UniProt Q13263); chain GAEALELLEHCGVCRERLRPEREPRLLPCLHSACSACLGPAAPAAANSSGDGGAAGDGTVVDCPVCKQQCFSKDIVE
Molecule | lacZ reporter activity
B1 (RFPL3 RING domain) | 0
B2 (TRIM2 RING domain) | 0
B3 (RNF17 RING domain) | 0
B4 (UBE4B RING domain) | 0
B5 (RMND5B RING domain) | 0
B6 (PJA2 RING domain) | 0
MEEMEEELKCPVCGSFYREPIILPCSHNLCQACARNILVQTPESESPQSHRAAGSGVSDY (TRIM9 RING domain (UniProt Q9C026)) | 0
B7 (TRIM28 RING domain) | 0

Further values, each from its own experiment
Compound | cell line | test | conditions | measurement | value
CC(C)S(=O)(=O)c1ccc2nccc(Nc3ccc4sc(C5CCCC5)nc4c3)c2c1.Cl | L929 RIPK3-/- reexpressing RIPK3 K51A | CCK-8 | 12.5 µM, added: zVAD | survival | 108% and 96.6% and 101% and 93.5%

Excerpt of the above (study 3):
Molecule | lacZ reporter activity
B1 (RFPL3 RING domain) | 0
B5 (RMND5B RING domain) | 0
B7 (TRIM28 RING domain) | 0
MEEMEEELKCPVCGSFYREPIILPCSHNLCQACARNILVQTPESESPQSHRAAGSGVSDY (TRIM9 RING domain (UniProt Q9C026)) | 0
